Measured values gathered from unrelated publications.
Lines come from different studies, so protocols differ. Values after ≈ are worked out from the molar mass of the structure shown.
Organism: Pseudomonas aeruginosa

CCCCCCCC(=O)NCC(=O)N[C@@H](CC(C)C)C(=O)N[C@@H](CC(C)C)C(=O)N[C@@H](CCCCN)C(=O)N[C@@H](CCCNC(=N)N)C(=O)N[C@H](C(=O)N[C@@H](CCCCN)C(=O)N[C@H](C(=O)N[C@@H](CC(C)C)C(=O)N[C@@H](CC(C)C)C(N)=O)[C@@H](C)O)[C@@H](C)CC  FIC index (checkerboard; ATCC 27853; together with: polymyxin B): 0.375
Nc1ccccc1C(=O)NS(=O)(=O)OC[C@H]1O[C@@H](n2cnc3c(N)ncnc32)[C@H](O)[C@@H]1O  inhibition (HHQ production, LC-MS/MS; PA14; 1500 µM, 8 h): 67%
C[C@@H](c1ccccc1)N(CC(N)=O)C(=O)CN(C(=O)CN(CCCCN)C(=O)CN(C(=O)CN(C(=O)CN(CCCCN)C(=O)CN(C(=O)CN(C(=O)CN(CCCCN)C(=O)CN(C(=O)CN(C(=O)CNCCCCN)[C@@H](C)c1ccccc1)[C@@H](C)c1ccccc1)[C@@H](C)c1ccccc1)[C@@H](C)c1ccccc1)[C@@H](C)c1ccccc1)[C@@H](C)c1ccccc1)[C@@H](C)c1ccccc1  bacterial load (LESB58, mouse, abscess model; maximum tolerated dose, day three): 8.2e+07 CFU/mL
CC[C@H](C)[C@H](NC(=O)[C@H](CCCCN)NC(=O)[C@H](CCCCN)NC(=O)[C@H](CC(C)C)NC(=O)[C@H](CCCCN)NC(=O)[C@H](CCC(=O)O)NC(=O)[C@H](CCCCN)NC(=O)[C@@H](NC(=O)[C@H](CCCCN)NC(=O)[C@H](CC(N)=O)NC(=O)[C@H](CCCNC(=N)N)NC(=O)[C@H](Cc1ccccc1)NC(=O)[C@H](CCCCN)NC(=O)[C@H](CCCNC(=N)N)NC(=O)[C@H](CC(C)C)NC(=O)[C@H](CCCNC(=N)N)NC(=O)[C@H](CCCCN)NC(=O)[C@H](CCCNC(=N)N)NC(=O)[C@@H](N)CC(C)C)[C@@H](C)CC)C(=O)NCC(=O)N[C@@H](CCC(N)=O)C(=O)N[C@@H](CCCCN)C(=O)N[C@H](C(=O)N[C@@H](CCC(N)=O)C(=O)NCC(=O)N[C@@H](Cc1ccccc1)C(=O)N[C@H](C(=O)N1CCC[C@H]1C(=O)N[C@@H](CCCCN)C(=O)N[C@@H](CC(C)C)C(=O)O)C(C)C)[C@@H](C)CC  lethal concentration (inhibition zone; O1; LB agar, overnight): 2.1 µM
CCCCCCCCCC(=O)NCC(=O)N[C@@H](CC(C)C)C(=O)N[C@@H](CC(C)C)C(=O)N[C@@H](CCCCN)C(=O)N[C@@H](CCCNC(=N)N)C(=O)N[C@H](C(=O)N[C@@H](CCCCN)C(=O)N[C@H](C(=O)N[C@@H](CC(C)C)C(=O)N[C@@H](CC(C)C)C(N)=O)[C@@H](C)O)[C@@H](C)CC  FIC index (checkerboard; ATCC 27853; together with: rifampicin): 0.5
CC[C@H](C)[C@H](NC(=O)[C@H](CCCCN)NC(=O)[C@H](CCCCN)NC(=O)[C@H](CC(C)C)NC(=O)[C@H](CCCCN)NC(=O)[C@H](CCC(=O)O)NC(=O)[C@H](CCCCN)NC(=O)[C@@H](NC(=O)[C@H](CCCCN)NC(=O)[C@H](CC(N)=O)NC(=O)[C@H](CCCNC(=N)N)NC(=O)[C@H](Cc1ccccc1)NC(=O)[C@H](CCCCN)NC(=O)[C@H](CCCNC(=N)N)NC(=O)[C@H](CC(C)C)NC(=O)[C@H](CCCNC(=N)N)NC(=O)[C@H](CCCCN)NC(=O)[C@H](CCCNC(=N)N)NC(=O)[C@H](CC(C)C)NC(=O)CN)[C@@H](C)CC)C(=O)NCC(=O)N[C@@H](CCC(N)=O)C(=O)N[C@@H](CCCCN)C(=O)N[C@H](C(=O)N[C@@H](CCC(N)=O)C(=O)NCC(=O)N[C@@H](Cc1ccccc1)C(=O)N[C@H](C(=O)N1CCC[C@H]1C(=O)N[C@@H](CCCCN)C(=O)N[C@@H](CC(C)C)C(=O)N[C@@H](C)C(=O)N1CCC[C@H]1C(=O)N[C@@H](CCCNC(=N)N)C(=O)N[C@H](C(=O)N[C@@H](CC(=O)O)C(=O)N[C@@H](Cc1ccc(O)cc1)C(=O)O)[C@@H](C)O)C(C)C)[C@@H](C)CC  lethal concentration (inhibition zone method; 11082603, LB 0.8% agar with 154 mM NaCl; overnight, 37 °C): 2.19 µM
C[C@@](O)(C(F)F)[C@H](NC(=O)c1ccc(C#CC#CC2CC2)cc1)C(=O)NO  MIC90 (agar dilution; MDR/XDR clinical isolates): 1 mg/L (≈ 2.66 µM)
CC[C@H](C)[C@H](NC(=O)[C@H](CCCCN)NC(=O)[C@H](CCCCN)NC(=O)[C@H](CC(C)C)NC(=O)[C@H](CCCCN)NC(=O)[C@H](CCC(=O)O)NC(=O)[C@H](CCCCN)NC(=O)[C@@H](NC(=O)[C@H](CCCCN)NC(=O)[C@H](CC(N)=O)NC(=O)[C@H](CCCNC(=N)N)NC(=O)[C@H](Cc1ccccc1)NC(=O)[C@H](CCCCN)NC(=O)[C@H](CCCNC(=N)N)NC(=O)[C@H](CC(C)C)NC(=O)[C@H](CCCNC(=N)N)NC(=O)[C@H](CCCCN)NC(=O)[C@H](CCCNC(=N)N)NC(=O)[C@H](CC(C)C)NC(=O)[C@@H](N)CCCNC(=N)N)[C@@H](C)CC)C(=O)NCC(=O)N[C@@H](CCC(N)=O)C(=O)N[C@@H](CCCCN)C(=O)N[C@H](C(=O)N[C@@H](CCC(N)=O)C(=O)NCC(=O)N[C@@H](Cc1ccccc1)C(=O)N[C@H](C(=O)N1CCC[C@H]1C(=O)N[C@@H](CCCCN)C(=O)N[C@@H](CC(C)C)C(=O)N[C@@H](CCC(N)=O)C(=O)N1CCC[C@H]1C(=O)N[C@@H](CO)C(=O)N[C@@H](CCCCN)C(=O)N[C@@H](CCC(N)=O)C(=O)N[C@@H](CO)C(=O)O)C(C)C)[C@@H](C)CC  lethal concentration (inhibition zone; O1; LB agar, overnight): 3 µM
CC(C)C[C@H](NC(=O)[C@@H]1CSCC(=O)N[C@@H](CCCCN)C(=O)N[C@@H](CC(C)C)C(=O)N[C@@H](CC(C)C)C(=O)NCCCC[C@@H]2NC(=O)[C@H](CC(C)C)NC(=O)[C@H](CC(C)C)NC(=O)[C@H](CCCCN)NC(=O)CSC[C@H](NC(=O)[C@H](CC(C)C)NC(=O)[C@H](CC(C)C)NC(=O)[C@H](CCCCN)NC2=O)C(=O)N[C@@H](CCCCN)C(=O)N[C@@H](CCCCN)C(=O)N[C@@H](CCCCN)C(=O)N1)C(N)=O  minimal biofilm inhibitory concentration (PAO1; 24 to 25 h): 8 µg/mL
CC[C@H](C)[C@H](NC(=O)[C@H](Cc1c[nH]cn1)NC(=O)[C@H](CCCCNC(=O)[C@@H](NC(=O)[C@H](CCCCN)NC(=O)CSC[C@H](NC(=O)[C@H](Cc1ccccc1)NC(=O)[C@H](CCCCNC(=O)[C@H](CC(C)C)NC(=O)[C@@H]1CCCN1C(=O)[C@H](CCCCN)NC(=O)C[C@@H]1O[C@@H](C)[C@@H](O)[C@@H](O)[C@@H]1O)NC(=O)[C@H](CC(C)C)NC(=O)[C@@H]1CCCN1C(=O)[C@H](CCCCN)NC(=O)c1ccc(O[C@@H]2O[C@H](CO)[C@H](O)[C@H](O)[C@H]2O)cc1)C(N)=O)[C@@H](C)CC)NC(=O)[C@@H](NC(=O)[C@H](CCCCN)NC(=O)CSC[C@H](NC(=O)[C@H](Cc1ccccc1)NC(=O)[C@H](CCCCNC(=O)[C@H](CC(C)C)NC(=O)[C@@H]1CCCN1C(=O)[C@H](CCCCN)NC(=O)C[C@@H]1O[C@@H](C)[C@@H](O)[C@@H](O)[C@@H]1O)NC(=O)[C@H](CC(C)C)NC(=O)[C@@H]1CCCN1C(=O)[C@H](CCCCN)NC(=O)c1ccc(O[C@@H]2O[C@H](CO)[C@H](O)[C@H](O)[C@H]2O)cc1)C(N)=O)[C@@H](C)CC)C(N)=O  MBC (PAO1; biofilm-forming conditions): > 45 µM

Some of these lines once more:
CC(C)C[C@H](NC(=O)[C@@H]1CSCC(=O)N[C@@H](CCCCN)C(=O)N[C@@H](CC(C)C)C(=O)N[C@@H](CC(C)C)C(=O)NCCCC[C@@H]2NC(=O)[C@H](CC(C)C)NC(=O)[C@H](CC(C)C)NC(=O)[C@H](CCCCN)NC(=O)CSC[C@H](NC(=O)[C@H](CC(C)C)NC(=O)[C@H](CC(C)C)NC(=O)[C@H](CCCCN)NC2=O)C(=O)N[C@@H](CCCCN)C(=O)N[C@@H](CCCCN)C(=O)N[C@@H](CCCCN)C(=O)N1)C(N)=O  minimal biofilm inhibitory concentration (PAO1; 24 to 25 h): 8 µg/mL
